Measured values of several laboratories.
Numbered parts are unrelated; each lists some results of a single study. “And” joins repeats or separate records; there may be more than shown.
UniProt Q56UN5, sequence (whole entry, looked up): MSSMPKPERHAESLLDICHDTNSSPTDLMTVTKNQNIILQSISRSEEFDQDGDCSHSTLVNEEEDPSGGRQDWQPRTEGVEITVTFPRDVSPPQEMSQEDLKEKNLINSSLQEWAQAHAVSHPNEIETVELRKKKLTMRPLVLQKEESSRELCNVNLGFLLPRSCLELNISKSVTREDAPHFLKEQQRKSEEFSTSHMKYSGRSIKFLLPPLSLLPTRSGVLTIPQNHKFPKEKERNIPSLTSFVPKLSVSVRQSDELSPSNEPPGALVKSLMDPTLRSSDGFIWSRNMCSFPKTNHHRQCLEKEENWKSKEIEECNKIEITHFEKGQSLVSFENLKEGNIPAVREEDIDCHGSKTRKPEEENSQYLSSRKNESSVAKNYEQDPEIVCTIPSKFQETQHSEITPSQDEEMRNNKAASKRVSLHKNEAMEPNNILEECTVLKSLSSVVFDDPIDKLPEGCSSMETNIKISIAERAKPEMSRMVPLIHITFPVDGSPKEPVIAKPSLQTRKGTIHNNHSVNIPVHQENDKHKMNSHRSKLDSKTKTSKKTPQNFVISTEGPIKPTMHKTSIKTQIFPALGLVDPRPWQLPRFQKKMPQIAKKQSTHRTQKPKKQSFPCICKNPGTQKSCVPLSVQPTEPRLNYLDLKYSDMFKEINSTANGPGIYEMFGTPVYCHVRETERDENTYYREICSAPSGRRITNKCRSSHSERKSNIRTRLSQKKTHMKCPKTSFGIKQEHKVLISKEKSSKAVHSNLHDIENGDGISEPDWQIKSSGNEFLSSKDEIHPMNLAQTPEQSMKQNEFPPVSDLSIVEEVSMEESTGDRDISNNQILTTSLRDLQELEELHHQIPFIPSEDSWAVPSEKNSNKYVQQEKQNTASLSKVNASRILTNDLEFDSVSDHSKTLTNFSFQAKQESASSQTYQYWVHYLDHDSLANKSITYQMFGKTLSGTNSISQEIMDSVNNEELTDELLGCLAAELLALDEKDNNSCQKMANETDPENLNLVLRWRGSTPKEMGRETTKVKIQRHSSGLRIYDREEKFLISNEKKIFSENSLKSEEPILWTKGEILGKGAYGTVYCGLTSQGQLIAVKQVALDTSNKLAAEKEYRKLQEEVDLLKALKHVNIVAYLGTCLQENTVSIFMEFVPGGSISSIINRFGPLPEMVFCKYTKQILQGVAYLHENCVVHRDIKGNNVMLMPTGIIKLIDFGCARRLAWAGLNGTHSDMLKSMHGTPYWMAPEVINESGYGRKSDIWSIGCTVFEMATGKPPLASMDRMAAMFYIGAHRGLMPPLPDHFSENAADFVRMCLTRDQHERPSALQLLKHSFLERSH
UniProt P32298, sequence (whole entry, looked up): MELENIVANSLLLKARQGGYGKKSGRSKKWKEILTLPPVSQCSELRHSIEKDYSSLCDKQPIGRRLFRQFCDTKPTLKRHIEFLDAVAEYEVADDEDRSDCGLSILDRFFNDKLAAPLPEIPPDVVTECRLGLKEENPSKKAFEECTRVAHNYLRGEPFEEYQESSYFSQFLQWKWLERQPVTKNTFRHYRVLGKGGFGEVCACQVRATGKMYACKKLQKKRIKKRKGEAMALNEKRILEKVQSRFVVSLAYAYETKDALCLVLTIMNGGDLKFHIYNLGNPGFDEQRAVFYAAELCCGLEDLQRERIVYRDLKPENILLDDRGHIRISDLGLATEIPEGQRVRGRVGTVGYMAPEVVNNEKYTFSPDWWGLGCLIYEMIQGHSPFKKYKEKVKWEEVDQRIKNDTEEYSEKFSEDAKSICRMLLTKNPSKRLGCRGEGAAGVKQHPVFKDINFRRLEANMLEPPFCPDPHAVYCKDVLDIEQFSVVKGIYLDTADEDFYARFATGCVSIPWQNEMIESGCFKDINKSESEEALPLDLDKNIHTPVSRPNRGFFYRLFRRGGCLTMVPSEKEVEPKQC
UniProt Q16816, sequence (whole entry, looked up): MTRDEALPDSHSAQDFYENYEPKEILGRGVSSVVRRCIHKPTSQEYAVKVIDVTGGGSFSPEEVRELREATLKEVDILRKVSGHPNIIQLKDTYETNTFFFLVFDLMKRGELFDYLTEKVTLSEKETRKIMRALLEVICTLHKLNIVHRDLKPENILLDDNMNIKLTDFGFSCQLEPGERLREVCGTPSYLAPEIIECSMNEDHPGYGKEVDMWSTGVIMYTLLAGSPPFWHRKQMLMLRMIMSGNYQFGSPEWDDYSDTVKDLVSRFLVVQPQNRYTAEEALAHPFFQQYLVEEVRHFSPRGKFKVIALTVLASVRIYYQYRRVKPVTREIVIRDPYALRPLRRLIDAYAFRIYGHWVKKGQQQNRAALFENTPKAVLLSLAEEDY
UniProt Q9Y2H1, sequence (whole entry, looked up): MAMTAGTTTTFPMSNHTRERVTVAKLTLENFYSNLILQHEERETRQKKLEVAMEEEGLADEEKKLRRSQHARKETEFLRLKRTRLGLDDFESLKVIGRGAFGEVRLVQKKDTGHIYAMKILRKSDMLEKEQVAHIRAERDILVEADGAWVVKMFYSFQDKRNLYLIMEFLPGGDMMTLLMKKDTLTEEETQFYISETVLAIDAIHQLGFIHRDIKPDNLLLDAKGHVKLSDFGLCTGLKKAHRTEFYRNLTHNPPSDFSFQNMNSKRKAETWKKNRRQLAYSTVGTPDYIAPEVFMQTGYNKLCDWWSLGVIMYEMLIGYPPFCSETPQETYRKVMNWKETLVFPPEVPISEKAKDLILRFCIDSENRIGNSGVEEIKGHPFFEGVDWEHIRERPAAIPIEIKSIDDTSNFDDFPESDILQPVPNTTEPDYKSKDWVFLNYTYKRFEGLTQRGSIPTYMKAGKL
UniProt P42336, sequence (whole entry, unmodified, looked up): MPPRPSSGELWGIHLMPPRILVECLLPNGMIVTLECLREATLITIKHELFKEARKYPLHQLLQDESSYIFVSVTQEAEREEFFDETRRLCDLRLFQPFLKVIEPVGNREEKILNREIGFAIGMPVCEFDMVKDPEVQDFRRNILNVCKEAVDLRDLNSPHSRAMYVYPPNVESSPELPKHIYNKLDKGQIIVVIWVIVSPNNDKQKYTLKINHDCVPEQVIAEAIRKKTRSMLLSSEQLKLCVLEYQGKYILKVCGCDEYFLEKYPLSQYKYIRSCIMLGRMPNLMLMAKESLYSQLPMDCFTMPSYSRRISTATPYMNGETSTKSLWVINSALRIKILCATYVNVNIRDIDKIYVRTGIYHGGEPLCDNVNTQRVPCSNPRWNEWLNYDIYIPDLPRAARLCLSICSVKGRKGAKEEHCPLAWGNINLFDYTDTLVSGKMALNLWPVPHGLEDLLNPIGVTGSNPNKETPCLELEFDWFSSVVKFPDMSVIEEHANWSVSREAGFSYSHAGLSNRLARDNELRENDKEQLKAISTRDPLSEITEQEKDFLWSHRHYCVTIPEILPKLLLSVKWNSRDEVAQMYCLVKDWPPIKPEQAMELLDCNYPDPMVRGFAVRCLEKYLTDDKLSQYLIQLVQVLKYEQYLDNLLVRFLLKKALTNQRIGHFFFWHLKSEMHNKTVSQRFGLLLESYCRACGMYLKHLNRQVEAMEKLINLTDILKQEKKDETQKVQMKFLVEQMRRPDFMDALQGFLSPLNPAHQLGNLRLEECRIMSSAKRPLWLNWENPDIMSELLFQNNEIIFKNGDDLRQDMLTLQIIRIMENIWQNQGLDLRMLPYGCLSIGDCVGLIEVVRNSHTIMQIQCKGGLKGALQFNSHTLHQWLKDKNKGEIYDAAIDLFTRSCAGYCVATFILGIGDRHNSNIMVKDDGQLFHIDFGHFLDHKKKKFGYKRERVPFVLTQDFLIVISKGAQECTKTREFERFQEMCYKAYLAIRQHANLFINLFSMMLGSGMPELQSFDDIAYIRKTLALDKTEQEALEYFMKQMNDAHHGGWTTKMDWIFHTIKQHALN

Sample 1 — observed: enzyme activity; mode: inhibitor; tested at: 0.5 µM; reference: control
Target: Mitogen-activated protein kinase kinase kinase 20 (MAP3K20, Homo sapiens, UniProt Q9NYL2)
UniProt Q9NYL2, sequence (whole entry, looked up): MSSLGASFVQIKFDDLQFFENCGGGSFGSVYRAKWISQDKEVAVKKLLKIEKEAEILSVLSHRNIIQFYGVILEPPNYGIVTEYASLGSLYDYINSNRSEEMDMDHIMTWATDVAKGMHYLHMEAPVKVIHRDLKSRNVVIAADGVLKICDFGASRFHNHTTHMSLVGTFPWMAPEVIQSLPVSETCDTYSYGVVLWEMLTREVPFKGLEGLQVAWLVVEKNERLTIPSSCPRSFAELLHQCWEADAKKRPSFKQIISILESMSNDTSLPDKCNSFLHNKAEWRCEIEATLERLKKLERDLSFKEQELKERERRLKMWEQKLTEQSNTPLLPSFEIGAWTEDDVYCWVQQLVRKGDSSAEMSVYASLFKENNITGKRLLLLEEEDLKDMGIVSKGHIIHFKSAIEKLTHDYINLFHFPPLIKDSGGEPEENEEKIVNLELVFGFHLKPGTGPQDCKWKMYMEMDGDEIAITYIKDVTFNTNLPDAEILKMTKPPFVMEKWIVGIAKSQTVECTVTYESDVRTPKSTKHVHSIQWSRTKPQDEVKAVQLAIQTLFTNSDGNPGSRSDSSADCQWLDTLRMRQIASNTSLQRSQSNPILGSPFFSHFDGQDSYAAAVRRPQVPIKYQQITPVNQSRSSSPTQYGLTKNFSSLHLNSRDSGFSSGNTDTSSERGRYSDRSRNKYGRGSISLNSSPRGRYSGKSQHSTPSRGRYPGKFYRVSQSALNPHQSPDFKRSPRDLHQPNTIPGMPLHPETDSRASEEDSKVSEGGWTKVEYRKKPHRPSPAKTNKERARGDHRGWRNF
SMILES | remaining activity [%]
c1ccc(-c2cnc(Nc3ccc(OCCN4CCCC4)cc3)s2)cc1 | 25.9
Cn1nc2c3c(cccc31)C(=O)c1ccccc1-2 | 83.1
O=C(Nc1cccc(Nc2nccc(Nc3cccc(C(F)(F)F)c3)n2)c1)C1CC1 | 110
O=C(NC(NC(=S)Nc1ccc(F)c([N+](=O)[O-])c1)C(Cl)(Cl)Cl)C(c1ccccc1)c1ccccc1 (stereo not shown) | 98.6
Ic1cccc(CSc2nnc(-c3ccncc3)o2)c1 | 96.7
Nc1cccc(-c2cc3c(Oc4cccc(O)c4)ncnc3[nH]2)c1 | 13.9
CCN(CC)C(=O)c1ccc(Nc2nc(OCC3CCCCC3)c3[nH]cnc3n2)cc1 | 91.4
COc1cc2ncnc(Nc3cccc(Cl)c3)c2cc1OC | 99.3
C[C@@H]1CCN(C(=O)CC#N)C[C@@H]1N(C)c1ncnc2[nH]ccc12 | 98.2

Sample 2 — observed: cell-free assay; technique: competition with immobilised ligand; tested at: 1 µM
Compound: CO[C@@H](C)c1c(Nc2ccc([C@@H](N(C)C(=O)C3CCS(=O)(=O)CC3)C(F)(F)F)cc2)cnc2cc(Cl)nn12
target | remaining binding [%]
Mitogen-activated protein kinase kinase kinase 12 (MAP3K12, Homo sapiens, UniProt Q12852) | 100
Serine/threonine-protein kinase haspin (HASPIN, Homo sapiens, UniProt Q8TF76) | 100
Phosphatidylinositol 4,5-bisphosphate 3-kinase catalytic subunit alpha isoform (PIK3CA, Homo sapiens, UniProt P42336, H1047Y) | 52
Serine/threonine-protein kinase 38-like (STK38L, Homo sapiens, UniProt Q9Y2H1) | 75
Receptor-type tyrosine-protein kinase FLT3 (FLT3, Homo sapiens, UniProt P36888, K663Q) | 94
BMP-2-inducible protein kinase (BMP2K, Homo sapiens, UniProt Q9NSY1) | 91
Serine/threonine-protein kinase RIO2 (RIOK2, Homo sapiens, UniProt Q9BVS4) | 89
G protein-coupled receptor kinase 4 (GRK4, Homo sapiens, UniProt P32298) | 100
Ephrin type-B receptor 2 (EPHB2, Homo sapiens, UniProt P29323) | 92
Ribosomal protein S6 kinase alpha-3, C-terminal kinase domain (RPS6KA3, Homo sapiens, UniProt P51812) | 100
Mitogen-activated protein kinase kinase kinase 19 (MAP3K19, Homo sapiens, UniProt Q56UN5) | 77
Serine/threonine-protein kinase 10 (STK10, Homo sapiens, UniProt O94804) | 98
Tyrosine-protein kinase ABL1, non-phosphorylated (ABL1, Homo sapiens, UniProt P00519, H396P) | 96
Phosphorylase b kinase gamma catalytic chain, skeletal muscle/heart isoform (PHKG1, Homo sapiens, UniProt Q16816) | 96
Serine/threonine-protein kinase PAK 5 (PAK5, Homo sapiens, UniProt Q9P286) | 100
ALK tyrosine kinase receptor (ALK, Homo sapiens, UniProt Q9UM73, L1196M) | 94

Sample 3 — cell line: A-375; tested at: 100 µM; time: 36 h
Compound | viability
CC(CN(C)C)CN1c2ccccc2Sc2ccccc21 (stereo not shown) | 2.2%
CCN(CC)CCOC(=O)C(c1ccccc1)c1ccccc1 | 53.3%
COc1ccc2cc1Oc1ccc(cc1)C[C@H]1c3cc(c(OC)cc3CCN1C)Oc1c(OC)c(OC)cc3c1[C@H](C2)N(C)CC3 | 0.445%
COc1cccc(N(C)C(=S)Oc2ccc3c(c2)CCCC3)n1 | 86.7%
Cc1ccc(Sc2ccccc2N2CCNCC2)c(C)c1 | 1.71% and -0.803%
Nc1nc(=O)[nH]cc1F | 114%
Cc1cccc(Nc2ccncc2S(=O)(=O)NC(=O)NC(C)C)c1 | 93.6%
O=C(NC1CCN(CCCCC2(C(=O)NCC(F)(F)F)c3ccccc3-c3ccccc32)CC1)c1ccccc1-c1ccc(C(F)(F)F)cc1 | 3.6%

Further values, each from its own experiment
Structure (SMILES) | cell line | technique | tested at | quantity | value
CC(C)(C)c1cnc(CSc2cnc(NC(=O)C3CCN(CCCCSc4cccc5c4C(=O)N(C4CCC(=O)NC4=O)C5=O)CC3)s2)o1 (stereo not shown) | HH | CCK-8 | 10 nM | viability | 100%
